Measured values of several laboratories.
Each line is one published result; not all experiments were run side by side. Values joined by “and” are separate records of one study, mostly repeats; a detail may differ. ± gives the spread as reported.
ALB: Albumin (ALB, Homo sapiens, UniProt P02768)

CC(NC(=O)CCCc1ccc2ccc3cccc4ccc1c2c34)C(=O)NO (stereo not shown) gave a binding stoichiometry of 0.89 (HDAC8 (Homo sapiens, UniProt Q9BY41); ITC; phosphate buffer; concentration not given, pH 7.5).
CCC1(O)CCCN(C(=O)c2ccc(-c3ccc(F)c(NC(=O)CCl)c3)cc2)C1 (stereo not shown) has a protein adduct of 80% (DNA dC->dU-editing enzyme APOBEC-3B, C-terminal domain (Homo sapiens, UniProt Q9UH17); covalent modifier, intact protein mass spectrometry, refers to: adduct +25721 Da; 500 µM, 1 h, 20-fold molar excess).
For N#Cc1ccc2c(c1)[C@H]1CCCN(C(=O)c3ccc4[nH]cnc4c3)[C@H]1C2, the plasma level was 11.3 pmol/L (refers to: ACTH; human, Phase II trial; oral, 240 mg once daily, last treatment, HPA axis, mean).
Nc1ncnc2c1ncn2[C@@H]1O[C@H](COP(=O)(O)OP(=O)(O)NP(=O)(O)O)[C@@H](O)[C@H]1O gave a -TΔS of -4.5 kcal/mol (Cell cycle histidine kinase CckA, CA domain (Caulobacter vibrioides, UniProt Q9X688); ITC; 12 °C, without c-di-GMP).
The displacement of COc1cccc(C(=O)Nc2nc3ccccc3[nH]2)c1 is reported as 10 ± 4% (ADORA2A (Homo sapiens, UniProt P29274); binding, radioligand competition; 10 µM, together with: [3H]ZM241385).
O=c1cc(CO)occ1[O-].[Cl-].[W+4].c1cc[cH-]c1.c1cc[cH-]c1 — result for “Stern-Volmer quenching constant”: 14100 L/mol (ALB; fluorescence quenching; 317 K).
With COc1ccc2nc([S+]([O-])Cc3ncc(CO)c(OC)c3C)[nH]c2c1 (stereo not shown) the Cmax was 64.4 ng/mL (CYP2C19 (Homo sapiens, UniProt P33261); substrate; human, plasma; oral, 20 mg, day 14, cocktail with binimetinib and encorafenib).
For NC/C(=C\F)COc1cccc(Cn2c(=S)[nH]c(=O)c3[nH]cnc32)c1, the inhibition was 105% (Amine oxidase copper-containing 3 (Canis lupus familiaris, UniProt A0A8I3MYY3); inhibitor; dog adipose tissue; 0.3333 µM).
For COc1cccc(F)c1-c1ccc(C(=O)NC[C@@H](N)C(=O)O)s1, the Hill slope was 1.38 (Glutamate receptor ionotropic, NMDA 1, with GluN2D (Grin1, Rattus norvegicus, UniProt P35439); together with: glutamate 300 µM).
CCCCC[C@@H]1NC(=O)[C@@H]2C[C@@H](OCC(=O)O)CN2C(=O)[C@H](CC(=O)O)NC(=O)[C@H](Cc2ccc(O)cc2)NC(=O)[C@H](CO)NC(=O)[C@H]([C@@H](C)CC)NC(=O)[C@H](Cc2ccc(-c3ccccc3)cc2)NC(=O)[C@H](CC(C)C)NC(=O)[C@@H]2CCCN2C(=O)[C@@H](NC(=O)[C@H](CCCNC(=N)N)NC(=O)[C@H](CCCNC(=N)N)NC(C)=O)CSSC[C@@H](C(=O)N[C@@H](CCCNC(=N)N)C(=O)N[C@@H](CCCNC(=N)N)C(N)=O)NC1=O — result for “lowest bound protein concentration”: 0.04 µM (GTPase KRas, GDP-bound (KRAS, Homo sapiens, UniProt P01116, G12D); affinity selection mass spectrometry; mixture library 4, together with: protein titration up to 2.5 µM; lower is stronger binding).
For Nc1nc2c(ncn2[C@@H]2O[C@H](COP(=O)(O)O)[C@@H](O)[C@H]2O)c(=O)[nH]1, the reaction rate was 14 s⁻¹ and 15 s⁻¹ and 14.9 s⁻¹ (GUK1 (Homo sapiens, UniProt Q16774, D103A); enzyme activity, NADH-coupled; 1000 µM).
Nc1ncnc2c1ncn2[C@@H]1O[C@H](COP(=O)(O)CP(=O)(O)OP(=O)(O)O)[C@@H](O)[C@H]1O gave a calcium influx of 4.52% and 5.19% and 5.5% and 2.54% (P2X purinoceptor 1 (P2RX1, Homo sapiens, UniProt P51575, S286A); calcium influx; 31.6 nM; reference: ionomycin response).
Cc1cc(-c2ccnc3[nH]cc(F)c23)cc(F)c1[C@@]1(O)[C@H](C)CN(C(=O)CN)C[C@@H]1C: “probe labelling inhibition” 64.8% (JAK1 (Homo sapiens, UniProt P23458); ATP/ADP probe binding, KiNativ; HEK293T lysate; 10 µM, activation loop domain 2).
For CCCCCCCCCCCCCC, the relative fluorescence was 74% (uncharacterized protein (Spodoptera exigua, UniProt F1CEY0); binding, competitor, fluorescence displacement; 20 µM, pH 7.4, together with: 1-NPN 20 µM; reference: 1-NPN alone).
Under “log2 fold change”, Cn1cc(-c2ccc(-c3cncc(Cl)c3N3CCC4(CCNC4=O)CC3)cc2)cn1 is recorded as 2.03 (COLO 205; gene expression, microarray, refers to: GADD45B mRNA; concentration not given, 2 h; reference: untreated cells).
Under “thermal stability ratio”, O=C(COP(=O)(O)O)[C@@H](O)[C@H](O)[C@H](O)COP(=O)(O)O is recorded as 0.511 and 0.7 and 0.51 (Prostaglandin E synthase 3 (Homo sapiens, UniProt Q15185); thermal proteome profiling, refers to: PTGES3; HepG2 cell lysate; concentration not given, 57 over 37 °C; reference: compound over control).
NC(=O)c1cnc2[nH]ccc2c1N[C@@H]1[C@@H]2CC3C[C@H]1C[C@@](O)(C3)C2: “change from baseline” -0.37% (flow cytometry, refers to: memory T cells (CD3+ CD45RA-); Japanese healthy subjects, peripheral blood; oral, 30 mg twice daily, day 4).
CSCC[C@H](N)C(=O)Nc1ccc2ccccc2c1 has a kcat of 33.8 s⁻¹ (Puromycin-sensitive aminopeptidase (Rattus norvegicus, UniProt F1M9V7); substrate; MW 100 kDa).
The sarcomere length of O=C(O)CNC(=O)Cc1ccccc1 is reported as 1.62 µm (ventricular cardiomyocytes, C57BL/6 mouse; dose not given, 0.536 s).
Cc1cc(O)cc(C)c1C[C@H](NC(=O)[C@@H]1CCCN1C(=O)[C@H](CCCNC(=N)N)NC(=O)[C@H](CCCNC(=N)N)N(C)C(=O)CNC(=O)[C@@H](CO)NC(=O)CNC(=O)[C@H](Cc1cn(CCNC(=O)[C@H](CC(C)C)NC(=O)[C@H](CC(C)C)NC(=O)C2OC2C(=O)NO)nn1)NC(=O)CN1CCN(CC(=O)O)CCN(CC(=O)O)CCN(CC(=O)O)CC1)C(=O)N[C@H](C(=O)N[C@@H](CC(C)C)C(=O)O)C(C)(C)C (stereo partly shown) gave a fraction unbound of 0.84 (human).
OC[C@H]1O[C@@H](Oc2cc3c(O)cc(O)cc3[o+]c2-c2ccc(O)c(O)c2)[C@H](O)[C@@H](O)[C@@H]1O — result for “Gibbs free energy”: -6.28 kcal/mol (ALB; binding, fluorescence quenching; 20 °C).
With CC(C)C[C@H](NC(=O)C[C@H](O)[C@H](CC(C)C)NC(=O)[C@H](Cc1c[nH]cn1)NC(=O)CNC(=O)[C@@H](NC(=O)[C@H](C)NC(=O)[C@H](Cc1c[nH]c2ccccc12)NC(=O)[C@H](CCC(N)=O)NC(=O)[C@@H](Cc1ccccc1)NC(=O)COCCOCCNC(=O)CCC(C(=O)O)N1CCN(CC(=O)O)CCN(CC(=O)O)CCN(CC(=O)O)CC1)C(C)C)C(N)=O (stereo partly shown) [lutetium-177 labelled] the tissue uptake was 0.01 %ID/g (female BALB/c nu/nu mice, muscle; intravenous, 100 pmol, 24 h, together with: PA 300 µg).
